# Results of several laboratories.
# Protocols differ between the studies behind these lines. Several values in a cell are separate wells, animals, samples, runs or records.
# ADRA2B: Alpha-2B adrenergic receptor (ADRA2B, Homo sapiens, UniProt P18089)
# Sequence of UniProt P18089 (whole entry, looked up): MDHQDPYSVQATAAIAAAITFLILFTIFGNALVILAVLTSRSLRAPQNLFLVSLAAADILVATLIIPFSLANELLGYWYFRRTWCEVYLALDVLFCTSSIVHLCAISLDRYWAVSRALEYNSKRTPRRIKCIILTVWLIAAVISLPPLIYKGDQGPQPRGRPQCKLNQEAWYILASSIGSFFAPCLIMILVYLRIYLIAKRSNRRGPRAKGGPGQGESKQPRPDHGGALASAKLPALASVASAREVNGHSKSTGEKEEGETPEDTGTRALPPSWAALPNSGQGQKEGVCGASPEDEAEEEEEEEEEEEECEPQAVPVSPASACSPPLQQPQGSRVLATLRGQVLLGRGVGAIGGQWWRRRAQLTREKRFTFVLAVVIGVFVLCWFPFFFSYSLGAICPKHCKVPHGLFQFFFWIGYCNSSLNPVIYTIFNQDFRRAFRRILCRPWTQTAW
# HDAC8: Histone deacetylase 8 (HDAC8, Homo sapiens, UniProt Q9BY41)
# Sequence of UniProt Q9BY41 (whole entry, looked up): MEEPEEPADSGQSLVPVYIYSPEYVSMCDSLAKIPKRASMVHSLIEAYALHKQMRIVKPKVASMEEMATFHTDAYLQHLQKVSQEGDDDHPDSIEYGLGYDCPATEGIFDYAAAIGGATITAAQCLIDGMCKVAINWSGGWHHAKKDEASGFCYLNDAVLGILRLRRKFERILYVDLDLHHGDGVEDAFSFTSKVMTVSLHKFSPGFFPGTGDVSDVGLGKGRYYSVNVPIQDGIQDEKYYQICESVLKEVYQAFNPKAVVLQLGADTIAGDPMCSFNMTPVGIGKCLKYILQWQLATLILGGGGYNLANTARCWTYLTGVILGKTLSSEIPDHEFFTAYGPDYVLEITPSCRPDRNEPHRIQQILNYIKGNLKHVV
# SCTR: Secretin receptor (SCTR, Homo sapiens, UniProt P47872)
# Sequence of UniProt P47872 (whole entry, looked up): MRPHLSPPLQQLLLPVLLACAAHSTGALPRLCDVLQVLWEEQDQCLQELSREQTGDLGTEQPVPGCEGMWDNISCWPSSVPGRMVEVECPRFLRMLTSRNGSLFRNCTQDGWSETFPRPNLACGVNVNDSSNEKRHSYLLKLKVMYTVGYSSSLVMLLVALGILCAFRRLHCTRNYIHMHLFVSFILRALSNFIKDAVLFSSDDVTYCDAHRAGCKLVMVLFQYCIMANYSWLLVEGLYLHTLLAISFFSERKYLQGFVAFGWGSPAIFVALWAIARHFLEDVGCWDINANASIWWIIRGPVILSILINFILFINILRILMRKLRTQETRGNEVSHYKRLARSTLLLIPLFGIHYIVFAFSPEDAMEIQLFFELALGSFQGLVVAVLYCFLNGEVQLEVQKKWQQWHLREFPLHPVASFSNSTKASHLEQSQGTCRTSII
# DRD3: D(3) dopamine receptor (DRD3, Homo sapiens, UniProt P35462)
# Sequence of UniProt P35462 (whole entry, looked up): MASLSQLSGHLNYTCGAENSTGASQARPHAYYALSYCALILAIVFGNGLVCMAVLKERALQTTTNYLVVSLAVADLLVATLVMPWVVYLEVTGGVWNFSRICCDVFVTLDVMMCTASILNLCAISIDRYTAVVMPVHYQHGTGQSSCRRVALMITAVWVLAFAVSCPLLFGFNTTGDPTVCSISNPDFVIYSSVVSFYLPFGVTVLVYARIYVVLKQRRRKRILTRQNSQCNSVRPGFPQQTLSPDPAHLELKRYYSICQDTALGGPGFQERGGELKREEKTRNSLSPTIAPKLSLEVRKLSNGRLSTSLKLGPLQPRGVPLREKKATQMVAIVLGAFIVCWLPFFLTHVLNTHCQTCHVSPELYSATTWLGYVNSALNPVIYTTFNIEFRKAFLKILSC
# HDAC6: Protein deacetylase HDAC6 (HDAC6, Homo sapiens, UniProt Q9UBN7)
# Sequence of UniProt Q9UBN7 (whole entry, looked up): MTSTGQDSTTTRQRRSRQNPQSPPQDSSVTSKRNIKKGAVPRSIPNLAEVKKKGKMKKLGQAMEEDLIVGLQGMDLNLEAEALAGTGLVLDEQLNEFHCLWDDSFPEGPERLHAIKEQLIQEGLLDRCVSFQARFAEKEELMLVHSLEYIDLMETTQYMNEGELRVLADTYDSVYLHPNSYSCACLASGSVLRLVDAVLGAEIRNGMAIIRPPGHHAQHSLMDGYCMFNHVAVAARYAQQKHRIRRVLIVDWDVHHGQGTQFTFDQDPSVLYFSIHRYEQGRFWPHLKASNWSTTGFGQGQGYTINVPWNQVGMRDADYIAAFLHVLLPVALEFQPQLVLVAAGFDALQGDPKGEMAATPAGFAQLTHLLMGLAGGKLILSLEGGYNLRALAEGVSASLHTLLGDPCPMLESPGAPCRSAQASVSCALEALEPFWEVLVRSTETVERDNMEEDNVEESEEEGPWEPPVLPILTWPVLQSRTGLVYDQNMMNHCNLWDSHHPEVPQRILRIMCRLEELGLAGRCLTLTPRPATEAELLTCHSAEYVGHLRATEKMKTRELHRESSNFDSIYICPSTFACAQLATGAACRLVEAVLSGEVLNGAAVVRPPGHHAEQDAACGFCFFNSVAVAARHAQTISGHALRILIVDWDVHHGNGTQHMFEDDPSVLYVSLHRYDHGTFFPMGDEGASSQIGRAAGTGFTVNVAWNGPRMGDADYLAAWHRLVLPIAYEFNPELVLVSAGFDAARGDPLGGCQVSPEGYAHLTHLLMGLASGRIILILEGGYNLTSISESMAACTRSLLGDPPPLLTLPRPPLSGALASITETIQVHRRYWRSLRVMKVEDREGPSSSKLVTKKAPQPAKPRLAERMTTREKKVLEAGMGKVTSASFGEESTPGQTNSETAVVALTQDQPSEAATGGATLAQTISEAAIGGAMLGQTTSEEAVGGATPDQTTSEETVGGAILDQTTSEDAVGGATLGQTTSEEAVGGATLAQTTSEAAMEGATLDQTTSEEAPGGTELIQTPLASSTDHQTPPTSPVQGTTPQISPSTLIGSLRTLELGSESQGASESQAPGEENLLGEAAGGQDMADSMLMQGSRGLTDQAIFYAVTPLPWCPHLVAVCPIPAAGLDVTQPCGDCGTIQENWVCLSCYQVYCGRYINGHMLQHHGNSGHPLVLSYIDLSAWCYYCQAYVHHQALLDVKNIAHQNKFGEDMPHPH
# ADRA1A: Alpha-1A adrenergic receptor (ADRA1A, Homo sapiens, UniProt P35348)
# Sequence of UniProt P35348 (whole entry, looked up): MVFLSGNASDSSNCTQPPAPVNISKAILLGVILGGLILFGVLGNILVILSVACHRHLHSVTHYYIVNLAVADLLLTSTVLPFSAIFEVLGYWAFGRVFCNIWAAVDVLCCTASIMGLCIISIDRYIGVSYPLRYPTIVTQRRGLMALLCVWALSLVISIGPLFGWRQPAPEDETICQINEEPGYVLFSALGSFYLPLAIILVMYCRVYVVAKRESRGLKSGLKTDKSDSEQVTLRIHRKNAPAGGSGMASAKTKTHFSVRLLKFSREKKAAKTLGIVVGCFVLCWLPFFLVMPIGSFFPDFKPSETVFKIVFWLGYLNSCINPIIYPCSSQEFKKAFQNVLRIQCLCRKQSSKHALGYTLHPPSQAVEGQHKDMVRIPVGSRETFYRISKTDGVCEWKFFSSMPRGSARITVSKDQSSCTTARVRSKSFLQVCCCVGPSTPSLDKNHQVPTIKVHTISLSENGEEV
# ADRA2C: Alpha-2C adrenergic receptor (ADRA2C, Homo sapiens, UniProt P18825)
# Sequence of UniProt P18825 (whole entry, looked up): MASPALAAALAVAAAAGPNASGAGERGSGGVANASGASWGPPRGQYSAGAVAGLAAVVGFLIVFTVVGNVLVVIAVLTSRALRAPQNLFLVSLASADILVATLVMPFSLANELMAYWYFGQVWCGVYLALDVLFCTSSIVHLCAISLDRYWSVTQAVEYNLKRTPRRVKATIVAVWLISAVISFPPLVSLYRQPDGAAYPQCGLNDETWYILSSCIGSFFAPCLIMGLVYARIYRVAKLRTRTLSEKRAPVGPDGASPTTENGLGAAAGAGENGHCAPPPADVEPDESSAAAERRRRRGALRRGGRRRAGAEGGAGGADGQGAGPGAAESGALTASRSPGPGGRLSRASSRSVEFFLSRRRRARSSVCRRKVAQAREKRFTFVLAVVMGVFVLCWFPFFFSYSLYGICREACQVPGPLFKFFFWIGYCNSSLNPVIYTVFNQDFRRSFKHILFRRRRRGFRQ
# Sequence of UniProt P0DMS8 (whole entry, unmodified, looked up): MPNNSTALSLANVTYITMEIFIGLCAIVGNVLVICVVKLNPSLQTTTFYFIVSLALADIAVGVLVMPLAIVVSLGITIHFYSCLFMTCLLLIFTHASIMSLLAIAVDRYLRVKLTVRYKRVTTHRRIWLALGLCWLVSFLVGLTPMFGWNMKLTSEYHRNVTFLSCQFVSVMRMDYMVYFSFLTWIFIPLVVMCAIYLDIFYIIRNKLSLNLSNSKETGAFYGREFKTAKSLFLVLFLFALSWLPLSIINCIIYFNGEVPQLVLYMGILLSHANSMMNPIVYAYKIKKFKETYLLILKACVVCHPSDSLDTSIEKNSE
# Sequence of UniProt P22059 (whole entry, looked up): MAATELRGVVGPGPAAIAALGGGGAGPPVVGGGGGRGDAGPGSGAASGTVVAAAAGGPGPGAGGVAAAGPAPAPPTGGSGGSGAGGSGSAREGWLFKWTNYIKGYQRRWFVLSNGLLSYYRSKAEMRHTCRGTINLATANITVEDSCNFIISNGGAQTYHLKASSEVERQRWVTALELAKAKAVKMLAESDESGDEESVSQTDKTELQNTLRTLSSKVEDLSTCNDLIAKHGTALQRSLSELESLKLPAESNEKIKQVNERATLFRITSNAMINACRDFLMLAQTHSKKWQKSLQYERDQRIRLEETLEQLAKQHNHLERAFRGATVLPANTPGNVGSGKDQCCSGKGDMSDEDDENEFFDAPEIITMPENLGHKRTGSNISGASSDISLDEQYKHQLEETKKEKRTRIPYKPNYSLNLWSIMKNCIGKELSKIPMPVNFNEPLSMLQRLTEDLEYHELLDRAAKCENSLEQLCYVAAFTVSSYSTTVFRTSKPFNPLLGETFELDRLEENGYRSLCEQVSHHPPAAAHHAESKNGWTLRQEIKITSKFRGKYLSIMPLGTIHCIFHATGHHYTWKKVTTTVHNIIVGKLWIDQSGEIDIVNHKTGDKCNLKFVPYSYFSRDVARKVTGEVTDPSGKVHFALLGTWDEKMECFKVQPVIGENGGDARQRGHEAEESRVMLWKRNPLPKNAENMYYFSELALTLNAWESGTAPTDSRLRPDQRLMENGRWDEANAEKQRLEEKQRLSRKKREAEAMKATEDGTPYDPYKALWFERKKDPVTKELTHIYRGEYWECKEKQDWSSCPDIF
Compound,target,observed,mode,technique,measurement,value
Cc1cc(Oc2ncccc2CN2CCN(Cc3ccccc3Cl)CC2)ccc1-c1c(C)c(=O)[nH]c(=O)n1C,ADRA2B,ligand displacement,,radioligand,Ki,0.0727 µM
Cc1cc(C)c(OS(=O)(=O)Oc2cccc(C(=O)NO)c2)c(C)c1,HDAC8,enzyme activity,inhibitor,fluorescence,Ki,0.16 µM
CC1=NN(/C(=N/c2nnc(C)s2)Nc2ccc(C)c(C)c2)C(c2ccc(-c3ccccc3C(F)(F)F)cc2)S1 (centres unmarked),SCTR,cAMP,agonist,TR-FRET,EC50,0.4 µM
Cc1cc(OS(=O)(=O)Oc2ccc(Oc3ccccc3)cc2)cc(C(=O)NO)c1,HDAC8,enzyme activity,inhibitor,fluorescence,Ki,3.08 µM
Cc1[nH]c(C)c(S(=O)(=O)Nc2ccc(C(F)(F)F)c(Cl)c2)c1C(=O)N(C)C,DRD3,G protein activation,antagonist,BRET,IC50,12 µM
CC1=NN(/C(=N\c2ccc(C)cc2)Nc2nnc(C)s2)C(c2ccc(C)cc2)S1 (centres unmarked),SCTR,cAMP,agonist,TR-FRET,EC50,3.1 µM
CN(C)c1ncnc2c1ncn2[C@@H]1O[C@H](CO)[C@@H](O)[C@H]1O,"Adenosine receptor A3 (ADORA3, Homo sapiens, UniProt P0DMS8, V169F)",G protein activation,agonist,,EC50,35 µM
Cc1cc(Oc2ncccc2CN2CCN(c3ccccc3)CC2)ccc1-c1c(C)c(=O)[nH]c(=O)n1C,ADRA2B,ligand displacement,,radioligand,Ki,0.0967 µM
Cc1[nH]c(C)c(S(=O)(=O)Nc2cc(Cl)c(Cl)cc2Cl)c1C(=O)N1CCC(F)(F)C1,DRD3,β-arrestin recruitment,antagonist,,IC50,6.8 µM
Cc1cc(Oc2ncccc2CN2CCN(CCc3ccccc3)CC2)ccc1-c1c(C)c(=O)[nH]c(=O)n1C,ADRA2B,ligand displacement,,radioligand,Ki,2.3 µM
CCOc1c(Br)cc(C(=O)Nc2ccc(C(=O)O)cc2)cc1C(=O)c1ccc(C)cc1,"Retinoic acid receptor gamma (RARG, Homo sapiens, UniProt P13631)",reporter gene,antagonist,luciferase,EC50,> 5 µM
Cc1cc(C(C)(C)C)ccc1OS(=O)(=O)Oc1cccc(C(=O)NO)c1,HDAC6,enzyme activity,inhibitor,fluorescence,Ki,1.59 µM
Cc1[nH]c(C)c(S(=O)(=O)Nc2ccc(C(F)(F)F)c(Cl)c2)c1C(=O)N1CCC(=O)C1,DRD3,G protein activation,antagonist,BRET,IC50,5.6 µM
COc1ccccc1N1CCN(Cc2cccnc2Oc2ccc(-c3c(C)c(=O)[nH]c(=O)n3C)c(C)c2)CC1,ADRA1A,ligand displacement,,radioligand,Ki,0.251 µM
CCc1ccc(/N=C(/Nc2nnc(C)s2)N2N=C(C)SC2c2ccc(C)cc2)cc1 (centres unmarked),SCTR,cAMP,agonist,TR-FRET,EC50,26.4 µM
O=C(NO)c1cccc(OS(=O)(=O)Oc2ccc(-c3cccc(C(F)(F)F)c3)cc2)c1,HDAC6,enzyme activity,inhibitor,fluorescence,Ki,1.38 µM
Cc1[nH]c(C)c(S(=O)(=O)Nc2ccc(Cl)c(Cl)c2)c1C(=O)N1CCC(F)(F)C1,DRD3,β-arrestin recruitment,antagonist,,IC50,5.5 µM
Cc1cc(Oc2ncccc2CN2CCN(c3ccccc3C)CC2)ccc1-c1c(C)c(=O)[nH]c(=O)n1C,ADRA1A,ligand displacement,,radioligand,Ki,1.18 µM
O=C(NO)c1cncc(OS(=O)(=O)Oc2ccc(-n3ccnc3)cc2)c1,"Histone deacetylase 5 (HDAC5, Homo sapiens, UniProt Q9UQL6)",enzyme activity,inhibitor,fluorescence,Ki,1.17 µM
CC1=C(O)C(=O)OC1C (centres unmarked),"OR8D1 (Homo sapiens, UniProt Q8WZ84, R293K)",cAMP,agonist,luciferase,EC50,12 µM
N#C[C@@]12C[C@@H]1[C@@H](n1cnc3c(N[C@@H](C4CCC4)C4CC4)nc(I)nc31)[C@H](O)[C@@H]2O,"5-hydroxytryptamine receptor 2A (HTR2A, Homo sapiens, UniProt P28223)",calcium signal,antagonist,,Kb,> 10 µM
CC1=NN(/C(=N/c2nnc(C)s2)Nc2ccc(C)c(C)c2)C(c2cc(F)c(F)c(F)c2)S1 (centres unmarked),SCTR,cAMP,agonist,TR-FRET,EC50,0.05 µM
Cc1[nH]c(C)c(S(=O)(=O)Nc2ccc(C(F)(F)F)c(Cl)c2)c1C(=O)N1CCC(F)(F)C1,DRD3,G protein activation,antagonist,BRET,IC50,0.34 µM
Cc1cnc(-c2ccc(-c3ccc(NC(=O)Nc4c(F)cc(F)cc4F)cc3F)c3c2C(=O)NC3)[nH]1,"Hepatocyte growth factor receptor (MET, Homo sapiens, UniProt P08581)",binding,,competition with immobilised ligand,Kd,0.0081 µM
Cc1[nH]cc(S(=O)(=O)Nc2ccc(C(F)(F)F)c(Cl)c2)c1C(=O)N(C)C,DRD3,β-arrestin recruitment,antagonist,,IC50,> 50 µM
Cc1cc(Oc2ncccc2CN2CCN(c3ccccc3O)CC2)ccc1-c1c(C)c(=O)[nH]c(=O)n1C,ADRA2C,ligand displacement,,radioligand,Ki,~0.011 µM and 0.0106 µM
Cc1[nH]c(C)c(S(=O)(=O)Nc2ccc(C(F)(F)F)c(Cl)c2)c1C(=O)N1CC[C@H](F)C1,DRD3,G protein activation,antagonist,BRET,IC50,2.6 µM
Cc1cc(Oc2ncccc2CN2CCN(c3ccccc3[N+](=O)[O-])CC2)ccc1-c1c(C)c(=O)[nH]c(=O)n1C,ADRA2B,ligand displacement,,radioligand,Ki,0.235 µM
Cc1cc(C(C)(C)C)ccc1OS(=O)(=O)Oc1cc(F)cc(C(=O)NO)c1,HDAC6,enzyme activity,inhibitor,fluorescence,Ki,1.43 µM
CC1=NN(/C(=N\c2ccc(Cl)cc2)Nc2nnc(C)s2)C(c2ccc(C)cc2)S1 (centres unmarked),SCTR,cAMP,agonist,TR-FRET,EC50,3.7 µM
COc1cccc(C(=O)CC(SCc2ccc(Cl)cc2)C(=O)O)c1 (centres unmarked),"Oxysterol-binding protein 1 (OSBP, Homo sapiens, UniProt P22059)",ligand displacement,,FP,Ki,100 µM
CC(C)(C)c1ccc(OS(=O)(=O)Oc2cc(F)cc(C(=O)NO)c2)cc1,HDAC6,enzyme activity,inhibitor,fluorescence,Ki,0.933 µM
Cc1[nH]cc(C(=O)N(C)C)c1S(=O)(=O)Nc1ccc(C(F)(F)F)c(Cl)c1,DRD3,G protein activation,antagonist,BRET,IC50,25 µM
COc1ccc(Cl)cc1N1CCN(Cc2cccnc2Oc2ccc(-c3c(C)c(=O)[nH]c(=O)n3C)c(C)c2)CC1,ADRA2C,ligand displacement,,radioligand,Ki,0.0553 µM
COc1ccc(OS(=O)(=O)Oc2cccc(C(=O)NO)c2)cc1OC,HDAC6,enzyme activity,inhibitor,fluorescence,Ki,0.028 µM
